Published values collected from several papers.
Numbered parts are unrelated; each lists some results of a single study. Substitutions count along the parent as printed.

Series 1
Target: TAR DNA-binding protein 43, full length, His tag (TARDBP, Homo sapiens, UniProt Q13148, residues 1-414)
Technique: RNA Bind-n-Seq
Form: RNA
Matrix: in vitro
Tested at: 20 nM
Setting: 6-mer, flanks averaged, single round
Together with: 150 mM LiCl
Reference: input library
Reading: higher = stronger binding
Quantity: 6-mer enrichment (R)
CCUGAU: 0.882
CUCGGC: 0.877
UGCGGG: 1.21
CGUCGU: 0.991
AAUGUC: 0.911
GAUGCC: 0.947
AGGUAG: 1.07
UCCAGU: 0.923
CGCAUC: 0.857

Series 2
Target: CCND1, cyclin fold, Cln2 fusion (human)
Technique: yeast growth competition, sequencing
Matrix: yeast
Setting: weak parent motif
Reference: not given
Reading: higher = stronger binding
Quantity: normalised enrichment score
Parent: WEE1 docking peptide (human); HKTFRKLRLFDTP
HKGFRKLRLFDTP [T3G]: 0.519
HKTFRKLRLFATP [D11A]: -0.148
HKTFRKLRLFQTP [D11Q]: 1.67
HTTFRKLRLFDTP [K2T]: 0.672

Series 3
Target: TATA-box-binding protein 1 (TBP1, Arabidopsis thaliana, UniProt P28147, residues 1-200, full length assumed)
Technique: protein-binding microarray
Form: double-stranded DNA, one strand shown
Matrix: in vitro
Tested at: not given
Setting: k-mer, scored over probes, only values ≥0.25
Reading: higher = stronger binding
Quantity: E-score
Target sequence (chain): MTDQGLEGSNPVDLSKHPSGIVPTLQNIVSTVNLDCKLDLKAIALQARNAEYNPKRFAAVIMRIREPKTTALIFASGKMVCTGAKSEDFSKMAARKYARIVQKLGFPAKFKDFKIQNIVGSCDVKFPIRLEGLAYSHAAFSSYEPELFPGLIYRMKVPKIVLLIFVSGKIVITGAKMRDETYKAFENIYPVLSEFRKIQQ
AAATATC: 0.275
GCGTATA: 0.346
CTTTTAA: 0.426
CATTTTA: 0.344
AAAATAT: 0.393

Mixed results
PhoQ, residues 284 288 289 292 302 303 SCCLKL  fold induction (PhoP, residues 12 14 15 18 19 TPWLV (Escherichia coli, UniProt P23836); Sort-seq, item: YFP reporter; E. coli; PhoQ-PhoP variant library, together with: 10 µM Mg2+; reference: high Mg2+ state, higher = stronger signaling): 6.65

For quick reference, copied from above (mixed results):
PhoQ, residues 284 288 289 292 302 303 SCCLKL  fold induction (PhoP, residues 12 14 15 18 19 TPWLV (Escherichia coli, UniProt P23836); Sort-seq, item: YFP reporter; E. coli; PhoQ-PhoP variant library, together with: 10 µM Mg2+; reference: high Mg2+ state, higher = stronger signaling): 6.65
